Published values from different studies.
Each line is one published result; not all experiments were run side by side. Numbers after ± are the reported error. Values after ≈ are worked out from the molar mass of the structure shown.

Structure (SMILES)	assay	system	setting	how to read	measurement	result
C[N+]1(CC(=O)OC2CCCCCCCCCCC2)CCCCCC1.[I-]	metabolic stability	human, liver microsomes	1 µM, pH 7.4		half-life	< 0.0333 h
CCN(CC)CCNC(=O)c1c(C)[nH]c(/C=C2\C(=O)Nc3ccc(F)cc32)c1C		human, plasma	oral, 20 mg/m2, day 21		minimum trough plasma concentration	24.2 ng/mL
CCOc1ccc(Cc2cc([C@@H]3S[C@H](CO)[C@@H](O)[C@H](O)[C@H]3O)c(OC)cc2C)cc1		Wistar rat, male, kidney	oral, dose not given, 1 h	baseline: kidney over plasma concentration	tissue/plasma ratio	94.9 ± 74.3
Cn1c(-c2ccc(C(N)=O)cc2F)nnc1C(C)(C)Oc1c(F)cc(Cl)cc1F		young Japanese adults, plasma	oral, 50 mg single dose, day 1, high-dose multiple-dose study		Cmax range over subjects	482 to 852 ng/mL
C[C@@H]1CCN(C(=O)CC#N)C[C@@H]1N(C)c1ncnc2[nH]ccc12	ultrafiltration	Sprague-Dawley rats, acute lung injury model, plasma	5 µg/mL		unbound fraction	0.364
O=C(CCCCCCC(=O)Nc1ccccc1)NO		patients, serum	oral, 400 mg, cycle 1 day 2, with: flavopiridol 30+30 mg/m2		AUC(0-7 h)	5.82 µM·h
Cc1ccc(NC(=O)c2ccc(CN3CCNCC3)cc2)cc1Nc1nccc(-c2cccnc2)n1		human patients	oral, 400 mg/day of imatinib, day 10 of cycle 1		clearance	22.8 L/h
COC(=O)N[C@H](C(=O)N[C@@H](Cc1ccccc1)[C@@H](O)CN(Cc1ccc(-c2ccccn2)cc1)NC(=O)[C@@H](NC(=O)OC)C(C)(C)C)C(C)(C)C	modified PAMPA Franz cell	phosphate buffer with HPMCAS	stock 5 mg/mL, 3 h, 37 °C, 193 nm particles, 300 rpm, with: 3% BSA receiver		particle permeability	47.7 ± 2.8 ×10⁻⁶ cm/s
COc1ccc2[nH]cc(CCNC(C)=O)c2c1		wild-type FVB/N lactating female mice, plasma	intravenous, 10 mg/kg, 30 min		concentration	513000 ± 413000 ng/mL
C[C@]12CC[C@@H]3c4ccc(O)cc4CC[C@H]3[C@@H]1C[C@@H](O)[C@@H]2O	GC-MS	breast cancer women on NSAI, serum	vaginal, 0.03 mg, 24 h, day 0		mean serum concentration	0 ng/mL
COc1c(O)cc2oc3cc(O)cc(O)c3c(=O)c2c1C/C=C(\C)CCC=C(C)C	UHPLC, non-compartmental	mice, plasma	oral, 700 mg/kg, virgin coconut oil suspension		AUC(24 h-inf)	420 ± 160 ng·h/mL
Cc1ccc(NC(=O)c2ccc(CN3CCN(C)CC3)cc2)cc1Nc1nccc(-c2cncc(-c3oncc3C)c2)n1		Parkinson's disease patients, plasma	oral, 50.0 mg once daily, day 1, 7-day dosing, mean		dose-normalised AUC(0-inf)	490 ng·h/mL/mg
COc1ccc(-c2cc(=O)c3c(OC)c(OC)c(OC)cc3o2)cc1OC		C57BL/6 mouse, male, liver	oral, 1% w/w in diet, 6 weeks, orange peel extract diet	baseline: content in orange peel	tissue to peel content ratio	0.216%
CN1CC[C@@H](NC(=O)Nc2ccc(C#N)cc2)C[C@@H]1c1nc2ccccc2[nH]1	equilibrium dialysis	human, normal hepatic function, plasma	6 h after dose, arithmetic mean		unbound fraction	0.08 ± 0.01
Cc1nc2cccc(OCC(C)(C)C(=O)NC(C)C)c2c(N)c1C(=O)O		female Sprague-Dawley rat, plasma	oral, 30 mg/kg		AUC(0-t)	107 ng·h/mL
C=C(C)[C@@H]1CC[C@]2(NCCN3CCS(=O)(=O)CC3)CC[C@]3(C)[C@H](CC[C@@H]4[C@@]5(C)CC=C(C6=CC[C@@](CF)(C(=O)O)CC6)C(C)(C)[C@@H]5CC[C@]43C)[C@@H]12		healthy human	oral, 100 and 500 mg, Holter ECG, post-dose time points	baseline: baseline	placebo-corrected QRS change	< 1 ms
NC(=O)OCC(COC(N)=O)c1ccccc1		Sprague-Dawley rat, male, liver	oral, 300 mg/kg, 6 h, single low dose	direction not given	hepatocyte vacuolization score	0
C#C[C@]1(CO)O[C@@H](n2cnc3c(N)nc(F)nc32)C[C@@H]1O		human, plasma	oral, 30 mg, single dose, fasted		AUC(0-inf)	3.91 µM·h
CC[C@H](C)[C@@H]1NC(=O)[C@H](Cc2ccc(O)cc2)NC(=O)[C@@H](N)CSSC[C@@H](C(=O)N2CCC[C@H]2C(=O)N[C@@H](CC(C)C)C(=O)NCC(N)=O)NC(=O)[C@H](CC(N)=O)NC(=O)[C@H](CCC(N)=O)NC1=O	microdialysis, radioimmunoassay	knock-out male mice lacking compound, amygdala extracellular fluid	intraperitoneal, 12 µg total, time to half of Cmax		half-life	0.245 ± 0.0283 h
O=C(/C=C/c1cccc(S(=O)(=O)Nc2ccccc2)c1)NO		human moderate liver dysfunction, plasma	intravenous, 400 mg/m^2, 30 min infusion, cycle 1 day -7		volume of distribution steady-state	38.1 L/m²
CN1CCN(C(=O)[C@@H](N)CSSC[C@H](N)C(=O)N2CCN(C)CC2)CC1.Cl.Cl.Cl.Cl		wild-type mice, male, urine	oral gavage, 29.3 µmol/kg daily for 1 week, 4 h after last dose		concentration in urine	2100 ± 570 nM
CCCCCCCC(=O)OC[C@H](NC(=O)[C@H](CO)NC(=O)CN)C(=O)N[C@H](C(=O)N[C@@H](CC(C)C)C(=O)N[C@@H](CO)C(=O)N1CCC[C@H]1C(=O)N[C@@H](CCC(=O)O)C(=O)N[C@@H](Cc1c[nH]cn1)C(=O)N[C@@H](CCC(N)=O)C(=O)N[C@@H](CCCNC(=N)N)C(=O)N[C@H](C(=O)N[C@@H](CCC(N)=O)C(=O)N[C@@H](CCC(N)=O)C(=O)N[C@@H](CCCNC(=N)N)C(=O)N[C@@H](CCCCN)C(=O)N[C@@H](CCC(=O)O)C(=O)N[C@@H](CO)C(=O)N[C@@H](CCCCN)C(=O)N[C@@H](CCCCN)C(=O)N1CCC[C@H]1C(=O)N1CCC[C@H]1C(=O)N[C@@H](C)C(=O)N[C@@H](CCCCN)C(=O)N[C@@H](CC(C)C)C(=O)N[C@@H](CCC(N)=O)C(=O)N1CCC[C@H]1C(=O)N[C@@H](CCCNC(=N)N)C(=O)O)C(C)C)[C@@H](c1ccccc1)c1c[nH]c2ccccc12	RP-HPLC Kinetex Biphenyl		acetonitrile/water TFA gradient		HPLC retention	32.8 %B

Structure (SMILES)	assay	system	setting	how to read	measurement	result
CC1=C2C[C@H]3[C@@H](CC[C@@H]4C[C@H](NS(C)(=O)=O)CC[C@@]43C)[C@@H]2CC[C@@]2(C1)O[C@@H]1C[C@H](C)CN[C@H]1[C@H]2C		patients, plasma	oral, 40 mg daily, day 22, cycle 1		Tmax	5 h
CC[C@H](C)[C@H](NC(=O)[C@H](Cc1ccccc1)NC(=O)[C@H](CC(=O)O)NC(=O)[C@H](CCCNC(=N)N)NC(=O)[C@H](C)NC(=O)[C@H](C)NC(=O)[C@H](CC(C)C)NC(=O)[C@H](CC(N)=O)NC(=O)[C@H](CC(=O)O)NC(=O)[C@H](CC(C)C)NC(=O)[C@@H](NC(=O)[C@@H](NC(=O)[C@H](CC(N)=O)NC(=O)[C@H](CCSC)NC(=O)[C@H](CCC(=O)O)NC(=O)[C@H](CC(=O)O)NC(=O)[C@H](CO)NC(=O)[C@H](Cc1ccccc1)NC(=O)[C@H](CO)NC(=O)CNC(=O)[C@H](CC(=O)O)NC(=O)CNC(=O)[C@@H](N)Cc1c[nH]cn1)[C@@H](C)O)[C@@H](C)CC)C(=O)N[C@@H](CC(N)=O)C(=O)N[C@@H](Cc1c[nH]c2ccccc12)C(=O)N[C@@H](CC(C)C)C(=O)N[C@H](C(=O)N[C@@H](CCC(N)=O)C(=O)N[C@H](C(=O)N[C@@H](CCCCN)C(=O)N[C@H](C(=O)N[C@H](C(=O)N[C@@H](CC(=O)O)C(=O)O)[C@@H](C)O)[C@@H](C)CC)[C@@H](C)O)[C@@H](C)CC		Japanese paediatric patients	subcutaneous, 0.05 mg/kg	baseline: non-Japanese paediatric patients	AUCss difference	≤ 20%
CCCCCCCCC(=O)N[C@H]1CNC1=O	chemical stability	PBS	1 µM, 24 h, pH 7.4		compound remaining	100%
CN[C@H](CC(C)C)C(=O)N[C@H]1C(=O)N[C@@H](CC(N)=O)C(=O)N[C@H]2C(=O)N[C@H]3C(=O)N[C@H](C(=O)N[C@H](C(=O)O)c4cc(O)cc(O)c4-c4cc3ccc4O)[C@H](O)c3ccc(c(Cl)c3)Oc3cc2cc(c3O[C@@H]2O[C@H](CO)[C@@H](O)[C@H](O)[C@H]2O[C@H]2C[C@](C)(N)[C@H](O)[C@H](C)O2)Oc2ccc(cc2Cl)[C@H]1O		Sprague-Dawley rat, plasma	intraperitoneal, 150 mg/kg, of 24 h AUC		AUC fraction within 6 h	> 90%
CC(C)C[C@@H]1NC(=O)[C@H](C)N(C)C(=O)[C@H](Cc2ccccc2)NCc2ccc([nH]2)CNC1=O		PAMPA	100 µM, 17 h, pH 6.4		Papp	9.77 ×10⁻⁶ cm/s
Cc1cnc(NC(=O)C2=C(O)c3ccccc3S(=O)(=O)N2C)s1		Sprague-Dawley rat, male, liver	oral, 0.4 mg/kg, 6 h, single low dose	direction not given	hepatocyte necrosis score	0
CCCC[C@H](NC(C)=O)C(=O)N[C@H]1CCC(=O)NC[C@@H](C(=O)N[C@@H](Cc2c[nH]c3ccccc23)C(N)=O)NC(=O)[C@H](CCCNC(=N)N)NC(=O)[C@@H](Cc2ccccc2)NC(=O)[C@H](Cc2c[nH]cn2)NC1=O		female rat, plasma	subcutaneous, 25 mg/kg/day, multiple doses, once daily		Cmax	1190 ng/mL
CCCC[C@@H]1NC(=O)[C@@H](NC(=O)[C@H](CCC(=O)O)NC(=O)CNC(=O)CN2CCN(CC(=O)O)CCN(CC(=O)O)CCN(CC(=O)O)CC2)CCCCNC(=O)C[C@@H](C(N)=O)NC(=O)[C@H](C(C)C)NC(=O)[C@@H]2CCCN2C(=O)[C@H](CCCNC(=N)N)NC(=O)CNC(=O)[C@H](Cc2c[nH]c3ccccc23)NC(=O)[C@H](CCCNC(=N)N)NC(=O)[C@@H](Cc2ccccc2)NC(=O)[C@H](Cc2c[nH]cn2)NC(=O)[C@H](CCC(=O)O)NC1=O [indium-111 labelled]		C57 mice, B16/F10 lung metastatic melanoma, pancreas	intravenous, 0.037 MBq, 24 h		tissue uptake	0.04 ± 0.02 %ID/g
C#Cc1cccc(Nc2ncnc3cc(OCCOC)c(OCCOC)cc23)c1		NOD/SCID mouse, male, whole blood or plasma	oral, 12.5 mg/kg every 12 h, day 1		terminal half-life	3.1 h
COc1cc2c(cc1OC)[C@@H]1Cc3ccc(OC)c(OC)c3CN1CC2		rat plasma QC sample	3200 ng/mL nominal, 24 h, high QC level autosampler stability		measured concentration	3172 ± 25.4 ng/mL
C[C@H]1CNCCCN1S(=O)(=O)c1cccc2cncc(F)c12	corneal endothelial cell morphology	human male	topical ocular, 1 drop per eye twice daily		recovery time	6 h
O=c1ccn([C@@H]2O[C@H](CO)[C@@H](O)[C@H]2O)c(=O)[nH]1	UHPLC-MS	male CD-1 mice, plasma	intravenous, 1 mg/kg, from 4 h postdose		terminal half-life	12.2 h
CS/C(S)=N/CCCC[S+](C)[O-] (racemic)	RT-PCR, item: Cyp19a1	rat, colon	oral gavage, 200 mg/kg, dosed for four days	baseline: vehicle	mRNA fold change	1.23
CNCc1ccc(-c2[nH]c3cc(F)cc4c3c2CCNC4=O)cc1		human cancer patients, plasma	intravenous, 18 mg/m2, day 1, with: temozolomide 200		clearance	19 L/h
CCOc1ccc(NC(=S)N(CCO)Cc2cc3cc(C)cc(C)c3[nH]c2=O)cc1		C57BL/6J mouse, plasma	oral, 3 mg/kg, with: ABT 50 mg/kg oral pretreatment 2 h before		AUC(0-24 h)	4340 ng·h/mL
CC(C)=CCC[C@](C)(O[C@@H]1O[C@H](CO)[C@@H](O)[C@H](O)[C@H]1O)[C@H]1CC[C@]2(C)[C@@H]1[C@H](O)C[C@@H]1[C@@]3(C)CC[C@H](O)C(C)(C)[C@@H]3[C@@H](O[C@@H]3O[C@H](CO)[C@@H](O)[C@H](O)[C@H]3O[C@@H]3O[C@@H](C)[C@H](O)[C@@H](O)[C@H]3O)C[C@]12C		Sprague Dawley rat, male, plasma	oral, 45 mg/kg, in red ginseng extract		AUC(0-36 h)	6400 ± 1400 ng·h/mL
COC(=O)C[C@](O)(CCCC(C)(C)O)C(=O)O[C@@H]1C(OC)=C[C@]23CCCN2CCc2cc4c(cc2[C@H]13)OCO4		CD1 mouse, liver	oral, 1 mg/kg, 24 h, below quantification limit 1.00 ng/mL		tissue concentration	not detected
CNCc1ccc(-c2[nH]c3cc(F)cc4c3c2CCNC4=O)cc1		human patients, plasma	oral, 600 mg twice daily, day 1, 12 h, arithmetic mean		AUC(0-t)	7200 ng·h/mL
Cc1[nH]c(=O)c(CNC(=O)c2ccc(N(C)C)o2)c2c1CCCC2	U-HPLC	20% DMSO in water			kinetic solubility	97.4 µg/mL (≈ 296 µM)
CCCSc1nc(N[C@@H]2C[C@H]2c2ccc(F)c(F)c2)c2nnn([C@@H]3C[C@H](OCCO)[C@@H](O)[C@H]3O)c2n1		male Wistar Han rats, plasma	oral, 60 mg/kg/day, week 52, carcinogenicity study		AUC	129 µM·h
CC(C)(/C=C(\C#N)C(=O)N1CCC[C@@H](n2nc(-c3ccc(Oc4ccccc4)cc3F)c3c(N)ncnc32)C1)N1CCN(C2COC2)CC1		healthy human	oral, 1200 mg, grade 2	baseline: participants	moderate treatment-related TEAEs	25%
CC1(C)C2CCC1(C)C(OC(=O)C(O)Cc1ccc(O)c(O)c1)C2 (centres unmarked)		Sprague-Dawley rat, plasma	intravenous, 6 mg/kg		AUC(0-inf)	392 ng·h/mL
